Measured values collected from several papers.
A part holds a random share of what one study measured.

Set 1 — technique: protein binding microarray; molecule type: double-stranded DNA, one strand shown; matrix: in vitro; tested at: not given; reference: not given; direction: higher = stronger binding
Target: Histone acetyltransferase KAT6A, both winged helices, GST fusion (KAT6A, Homo sapiens, UniProt Q92794, residues 1-181)
Setting: 8-mer, flanks averaged, mean of 2 arrays, mostly near background
Target sequence (chain): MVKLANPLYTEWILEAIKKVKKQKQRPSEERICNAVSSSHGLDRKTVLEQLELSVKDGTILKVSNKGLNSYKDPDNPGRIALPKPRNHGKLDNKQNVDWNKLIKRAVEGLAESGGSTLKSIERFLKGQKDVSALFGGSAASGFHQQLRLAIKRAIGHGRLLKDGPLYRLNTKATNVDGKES
Strand | E-score
ACCTATTA | -0.12
GAATCGGA | 0.0709
GCATCTCA | -0.0933
GAACCTGA | -0.0857
CCATCAGC | -0.0348
AAGTTAGT | -0.0364
CTTCTATC | -0.0654
CTACCAGC | -0.174
CGCGTTTC | 0.314
CCACCATC | -0.0379
CTACGTCA | -0.0335
CCGCAAAC | 0.0992
CAGGTCAC | -0.0612
ATCCAGTG | -0.0398
AGGGTCCA | -0.106
CCATCTAG | -0.312
ACCAAACG | 0.0286
ATTGCGGG | 0.232
CGCTCGAA | 0.063
GCTTTCAC | -0.0596
GCCTGTAA | -0.0127
GAATTACC | 0.0471
CACTCAGG | -0.0503
CCCACCAC | -0.178
ACGTTAAT | 0.0185

Set 2 — technique: universal PBM; molecule type: double-stranded DNA, one strand shown; matrix: in vitro; tested at: not given; direction: higher = stronger binding
Target: Sal-like protein 4, full length isoform B (SALL4, Homo sapiens, UniProt Q9UJQ4-2, residues 1-616)
Setting: 8-mer, flanks averaged, mean of replicates
Residues (chain): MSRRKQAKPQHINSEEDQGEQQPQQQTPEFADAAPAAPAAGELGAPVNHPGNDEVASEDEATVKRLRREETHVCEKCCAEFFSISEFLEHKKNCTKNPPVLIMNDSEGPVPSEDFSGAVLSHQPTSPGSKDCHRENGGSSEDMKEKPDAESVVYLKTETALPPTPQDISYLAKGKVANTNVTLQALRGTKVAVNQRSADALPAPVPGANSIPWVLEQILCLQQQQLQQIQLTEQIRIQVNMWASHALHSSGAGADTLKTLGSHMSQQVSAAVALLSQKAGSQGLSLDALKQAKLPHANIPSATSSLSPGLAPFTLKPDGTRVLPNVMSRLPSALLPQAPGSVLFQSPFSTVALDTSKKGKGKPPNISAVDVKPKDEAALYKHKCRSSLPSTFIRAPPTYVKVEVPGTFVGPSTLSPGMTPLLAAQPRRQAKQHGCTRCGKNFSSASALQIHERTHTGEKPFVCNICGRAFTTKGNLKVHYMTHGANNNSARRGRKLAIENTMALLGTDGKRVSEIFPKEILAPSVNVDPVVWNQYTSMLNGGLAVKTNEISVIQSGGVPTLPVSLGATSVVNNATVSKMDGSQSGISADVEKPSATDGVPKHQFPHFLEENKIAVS
Strand | E-score
GGGGAAAA | 0.0337
AGTTGGAG | -0.0967
GTCCATGA | 0.0154
CCAGGGCG | -0.399
AGAAAATA | 0.308
ATTAGGCG | -0.0101
CGATGAAC | -0.0922
CAGAAAGG | -0.158
ACTCACTC | -0.0158
GACGGACA | -0.113
CGACCGAC | -0.209
ATCCGAAA | -0.0228
CACCGACA | -0.222
CTGTCAGC | -0.162
GGCGGAAC | -0.243
ACAGCTAC | 0.0456

Set 3 — technique: EMSA with sequencing; molecule type: double-stranded DNA, one strand shown; matrix: in vitro; tested at: 10 and 20 nM; reference: negative control set to 0; direction: higher = stronger binding
Target: Hepatocyte nuclear factor 3-alpha (Foxa1, Mus musculus, UniProt P35582, residues 1-468, full length assumed)
Chain of UniProt P35582 (whole entry, looked up): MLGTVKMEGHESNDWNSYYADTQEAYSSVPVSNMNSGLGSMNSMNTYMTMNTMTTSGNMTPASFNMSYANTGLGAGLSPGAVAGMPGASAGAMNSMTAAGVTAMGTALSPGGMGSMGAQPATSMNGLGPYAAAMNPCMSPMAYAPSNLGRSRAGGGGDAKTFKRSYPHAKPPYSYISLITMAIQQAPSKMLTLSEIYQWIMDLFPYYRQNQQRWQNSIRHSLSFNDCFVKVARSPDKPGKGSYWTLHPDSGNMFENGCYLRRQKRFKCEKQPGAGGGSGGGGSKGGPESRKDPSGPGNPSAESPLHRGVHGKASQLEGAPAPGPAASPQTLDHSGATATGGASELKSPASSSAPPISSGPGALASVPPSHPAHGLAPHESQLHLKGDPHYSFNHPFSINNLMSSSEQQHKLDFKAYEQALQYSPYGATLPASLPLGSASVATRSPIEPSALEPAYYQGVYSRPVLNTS
Setting: whole designed probe, mean of two concentrations, ends assumed
Strand | normalised bound fraction [ratio]
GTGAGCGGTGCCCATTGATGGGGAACGCGACGGCGCCCAATGAGCGGCCAGGATGTTGGAGCGCCGGCGGCGGTCCGGGCGCTCGCTGGCTGAGGGACGGCGGCCGCCGCCATGATGCTTGTTTGCTTTCAATGAAAACGAGGGGGGCGCGGAGGAGGAGGCGGCGGCGTCGGTGGCGGCGGCGACGGCGGCGCGGAGGCGAAGGCAGCGGCGGGCGCATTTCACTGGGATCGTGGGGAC | 0.152
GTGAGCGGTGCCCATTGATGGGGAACAGTTTATTATTTGCTTAAAAACAAATTAATATAATTGCATTGCTTATAAAATGTAACCTTACTTGACCGCTAAAGATGACCTAGTTCTTTTTTCAGATTACTTTGTTTTGAATTTACTGATAATATGAACCTTGGAAAATCCATCAATACAAAGAGTTTCTGTTTCTATTGATTTGTCAGAGAGGTGTTCTGATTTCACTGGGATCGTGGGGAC | 0.248
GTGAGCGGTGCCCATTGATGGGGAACATAATGTCTTAGATTAAAGACGTTGCCTTTAATATCTGTTGGGAAGGAAATGTCCAGACTTTTCAAATCTCTTATTATATGTTTCCTTTTTTTGTTTACATAGGGAACAATGTTTATAGTCGTGTGTACAGTGGGGGTCTACAACAAGAAGTGTATATTTTCAAACAATTTTTTAATGATTTAACAATTTTTGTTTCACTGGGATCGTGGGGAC | 0.544
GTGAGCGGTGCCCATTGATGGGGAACCTTGGCATGTTATATAACAACTTAACTAACGGCCGCCATGCACGAAAGAGCAAACCGTCCTGTTGCCTAGTGACTATTATCCAAGGCAATCAAAGTAATCTGCAAATGCCACAGATATTTTTGAACAGCTGTTAGATGACCCAGATACAATATTTATATGGCTCGCTAGTTTCTCAGACAGAATTGGACCCTATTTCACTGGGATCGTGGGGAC | 0.0325
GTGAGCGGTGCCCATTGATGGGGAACATCTTCCCCCTCTTCCTTGCCCCACCAGCTCACCTTCCCGGGTTATTTGCAGATAGGAAAATAAATAAAGCCGGCATTCGTTAACCCTCTTCTGGCGCAAACTGCTGTTTGCTCTGGATGAATCATGGTCCTTTGGCGACGCCAGCCTGGGACGGAGCAAAGCACCGTGTCAGGGCCATGATCCGGGGTGGCCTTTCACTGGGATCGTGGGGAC | 0.345
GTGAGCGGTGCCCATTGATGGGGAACCACTCATAGTCTTGCTATCCTTCATATACAGAGATGACCCTCCCAAGCCTAAAATCAACAGGGGGAGGCATAGAGCTGTCCTTCTGGCTCTAATGTTTGCTTTACCATCATCTTAGTCCACGCCCATTCCAGCATGTGAGAGCCAGTGTGAAGTGAGCAGAATATGGCATAAGTATGGAGTCATACATCCTTATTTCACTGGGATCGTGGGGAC | 0.372
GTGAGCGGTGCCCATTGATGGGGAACTGAGCCCTTGAATTTCCAATTTTCCCTTTGTCTCCCATTCTTAATATTTCTCAAAAAAATTCAATTATTCCCTCTCTTAAAATAAACTCAATGTAATCTGGGTATATAAACTATGGATCACAATTGAATGAAACATTCTGCAAATATTGAAAATTATCTGTCTAATCTATATATTGATGATAGGAAATGTATTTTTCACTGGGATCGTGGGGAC | 0.0655
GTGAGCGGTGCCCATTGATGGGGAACGCCAAGCTGTGCTCATGATCACATGGGAGGGAGGTGACAATGGAAAGCAGATAAATGAACTATTGCAGCCAATTGATGAGCACAGAGAGAGGCAGATTACTGAATGTAGGCAGATAGGACCTTACACAATATCCCAGAGATCAACTTACCCCAGCACGGCTTGGACTTAGCAGAGAGGACCAATGGACCTGAATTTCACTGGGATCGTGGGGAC | -0.0681

Set 4 — technique: RNA Bind-n-Seq; molecule type: RNA; matrix: in vitro; tested at: 365 nM; reference: no-protein control; direction: higher = stronger binding
Target: RNA binding protein fox-1 homolog 2, RRM domain, GST-SBP tag (RBFOX2, Homo sapiens, UniProt O43251-10, residues 100-194)
Setting: natural RNA segment, single round, ends assumed
Target sequence (chain): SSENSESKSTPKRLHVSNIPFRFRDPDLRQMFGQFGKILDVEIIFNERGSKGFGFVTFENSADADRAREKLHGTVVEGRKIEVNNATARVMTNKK
Strand | RBNS enrichment (R)
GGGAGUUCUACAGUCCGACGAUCGCAAGGUGCUUACUGUCACCUGAUGCCAUACACAUGGUCCCAGGCCCACACCCGGGGGGCCUCUGUUCAUAGCGGCACAUGCAUUUCCCCACCGCGUCUUGUCUGCAGCUUGGAAUUCUCGGGUGCCAA | 0.528
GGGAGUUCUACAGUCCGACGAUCUCAUGAUUAUUUUAGAAACUGGAUUUUAAAAAGUCUUUUAGAGUUUCACAACAAGGAGAAGCCACAGUUUGUGGCAUCCUAUAGUUUUACAUUGUGUAUUUCUUCCUUUUUGGAAUUCUCGGGUGCCAA | 0.435
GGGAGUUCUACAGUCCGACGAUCAUUCCAAUAAACUAUGAGGACUGCCUUAUGGAUGAUUUAAGUGUCUCACUAAAGCAUGAAAUGUGAAUUUUUAUUGUUGUACAUACGAUUUAAGGUAUUUAAAGUAUUUUUGGAAUUCUCGGGUGCCAA | 8.46
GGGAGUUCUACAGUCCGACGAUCCCAACCUUCGCACCCAUCCGCCCCCGCAGGCCUGGGGAGAACACAGAUAUGCUUGCACAGGCUGUGGAGUGUGACUUGUUGGAGACUGGACUAGGUGUUGUGUGGAAGUAUGGAAUUCUCGGGUGCCAA | 1.51
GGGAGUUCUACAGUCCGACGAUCCCACCCACCCAGCGGUAUUGGAAGUGGCGACCAGGGGUGACCCGUCGUGGAGCCACUUCUCGCACUGCCACGGAGCAGCCGGAAACAAGGAGGCCUCGUGGGAUCCUUUAUGGAAUUCUCGGGUGCCAA | 0.146
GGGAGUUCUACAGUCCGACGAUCACUGUGUAAGGAAAAUUACUUUUGUAUUGUUUGUUGGUUAUUUCCAAAAUAACCACCUUGUAAAUACCCUUAGAGCCAGCCCUGAUGCUUUACAUCAUUGCUACUUGAUUUGGAAUUCUCGGGUGCCAA | 0.315
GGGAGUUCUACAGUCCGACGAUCCGGGGAGCCCUUCGGAGAUGAGGGUUUCCACGAGCGCGAGGGCCGCCCCUACUGCCGCCGGGACUUCCUGCAGCUGUUCGCCCCGCGCUGCCAGGGCUGCCAGGGCCCCAUGGAAUUCUCGGGUGCCAA | 0.366
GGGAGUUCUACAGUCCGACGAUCACAGUCGGUGGCCUUGUACCUGGGGGAGGUGGCUUAGGGCUUCUACCUCUGGGGGUAGAGGGAAGACCUAAUUCACAGGUCCUGGGAAAUUUGCUCAAUAAAAGUGGCCUUGGAAUUCUCGGGUGCCAA | 0.72
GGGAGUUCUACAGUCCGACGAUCUGUGAAAAGAAUUUGUUCAAGGCUUAACAUUUUUGAUACAGACUAAUAAAAUUUAAGAAACAAAGGAUUCUGGGAACAGACAGGAAGGGCCCUAGGUUACAUUUUUGGUGUGGAAUUCUCGGGUGCCAA | 0.815
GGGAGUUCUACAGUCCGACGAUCAAAAUCUCAAGUGAAAAAGAAUUAACCUGUUAAAUCAGAAUGGUUCUCUUUGACCCGUUCUGGUCUAUUGUGUAAAUAUUUAUUUAGACUAUUUUGAUAAUACAUAUUAUUGGAAUUCUCGGGUGCCAA | 0.343
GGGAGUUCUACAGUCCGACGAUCACCCCCUGCUCCAGGAGAUCUACAAGGACUUGUAUAGCAGGAAAGUCCCACCCGCUGACAACGUGUUCCUUCUAUUGAUUGCACUAUUAUUUUGAGGGAAAAAAAUCUGAUGGAAUUCUCGGGUGCCAA | 1.16
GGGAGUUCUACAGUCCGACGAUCUCCCCUUGUGGCUAAACGAAAGCAAAUGUCCGGAAGUCUUGAGAAGCUGUGUCGUGUUCCCUGUGGAAAUGAGUUGAUGUGUGCCAGUGCUGAGCACCUGGUAUUGAGGUUGGAAUUCUCGGGUGCCAA | 3.09

A few entries again (set 1):
Strand | E-score
AGGGTCCA | -0.106
CAGGTCAC | -0.0612
ACCAAACG | 0.0286
CCATCAGC | -0.0348
GAATCGGA | 0.0709
ATTGCGGG | 0.232
CTACCAGC | -0.174
CCGCAAAC | 0.0992
